# Published values of several laboratories.
# Every numbered part comes from another study and shows a few of its results, in no order. Substitutions count along the parent as printed.

# Study 1
# Target: RNA binding protein fox-1 homolog 2, RRM domain, GST-SBP tag (RBFOX2, Homo sapiens, UniProt O43251-10, residues 100-194)
# Method: RNA Bind-n-Seq
# Form: RNA
# Sample: in vitro
# Concentration: 365 nM
# Notes: natural RNA segment, single round, ends assumed
# Reference: no-protein control
# Direction: higher = stronger binding
# Constant ends, left off below: GGGAGUUCUACAGUCCGACGAUC … UGGAAUUCUCGGGUGCCAA
Oligonucleotide,RBNS enrichment (R)
AAGAAGAAAAUGGAAGAAAAAGGGAAAAAAGCUAACCGGAUAACCAAUUUGUUAUAAGUUGGUUUUCAACAAAGAAAUUUAGCAGCCAAGUAAGGUUUCAAGGGAAUAUU,1.04
AGCUCCACUGUUGGCAAAGUCUUGGCAGUGGUACAUUAUUCAUCGUGUUUGCAUUCUUGUUAAUUUUUUUUUUGGCUUUGGAAUGUGACACAGCCUUUUUGAUCAUUUCU,0.725
UUUGGGACCUCGAGGGGACAGCAAGAGAGAAUGAGAGAGGAGCUCCAAUGUGAGCUUUUCGUUCUUAUACAUUUAAUUUCGGGUGAUGUUGGCCAGAGGUAUCUGGGAGA,0.511
GUCCAACAUGAGAUUUUAGGAAUAGAAAUUUGCCGGCCAUUUGGAAAGUGAAAUGCCACUUAGUUCUCAAUUGAUGACAGUGUUUGAAUCAUCAUAAAAAAAAUACCUGC,1.1
GCCAAGCAUUUGAACACUUUUUAUAUAAAAUUGUGUGAUGUCUCUUUAUGUCUGCUCUGAGCCUUAAAACACAGGUUGAAGAAGAAAAGAAAGGAAAAAAAAGUGAAAGU,0.718
GUCAAUAUUUUCAAAUUUUUCUAGUUUCCACACACGAGGUCCUGCCUGGGGUUUGAGAAAGCCUGGUGGAGGAGUGUGGUGGUGUGAGUGGAGACUGGCUGGCAUUCCUC,0.792
AAAAGACUUUGUUUAAAGAUUUUAUUUAAACUAUUAAGAAUCAACAUGCAAACAGCCUACUUCUUCAUGAACAAUUCCAUUUUAUUGACUGAACUUUUCUCAUAUUUUCA,1.03
UGCCUGGGGACCUCAGAUGGGAGGAGUGUGUCAGUUGUACCCCGACAGAAAUGUCUCUGGGAUCUGUGGCUGGCUUGCCCCGGGCAUCUCUCCUUUAAGCUCAAGUUUUG,0.434
UAAUUAAAAAAAUGCCUGUAUGCCUUUUUUUGGUCGGAUUGUAAAUAAAUAUACCAUUGUCCUACUGUUUUGUCUUGAAUCUCAUGCAGGGGUUGGAGGUCUGAGGUGAG,2.37
UACAUUUUUGCACUGAAAUCUAAAGAUGUUUUAAAAAACACUUUUCACAAAAAUAGUCCUUUGUCAUUACAUUAUUUACUCAUGUGUUUGUACAUUUUUGUAUGUUAAUU,0.455
UUGUAUAAAAAUUUCUCAUCUUUUCAGACUUUUUUGUAAACCGCCCCCGAGUUGUGAAAGCUGCGACGUAGCAGUGACCUCAGCAGUCCCUAUGUUUUCCCCCUUUGAAA,0.746
AGAACUCCAAUGCUGAAUGGAGAAGGGUAAUAGGUUGGUGCAGUGAAUGGGCUGGGGGUGGGGUGGCCUUCUCCAGGCCUGAGUGUUUUUGUGUCCAGCUCAGUAUCUGC,4.85

# Study 2
# Target: CCND1, cyclin fold, Cln2 fusion (human)
# Method: yeast growth competition, sequencing
# Sample: yeast
# Notes: weak parent motif
# Reference: not given
# Direction: higher = stronger binding
# Parent: GMNC docking peptide (human); KNAKRNLSSEFAN
Substitution,normalised enrichment score
KNAARNLSSEFAN [K4A],0.669
KNAKRNHSSEFAN [L7H],0.0162
KNACRNLSSEFAN [K4C],1.33
KNAKRNQSSEFAN [L7Q],0.0419
KNAKRNSSSEFAN [L7S],-0.0113
KNAKFNLSSEFAN [R5F],-0.0198
KAAKRNLSSEFAN [N2A],0.291
KNAKRNLSSTFAN [E10T],0.0179
KNAKRRLSSEFAN [N6R],0.377
KNAKRNLSSHFAN [E10H],-0.0634
KNAKRNMSSEFAN [L7M],-0.000143
KFAKRNLSSEFAN [N2F],0.355
KNAKRILSSEFAN [N6I],-0.0908

# Study 3
# Target: Sal-like protein 4, full length isoform A (SALL4, Homo sapiens, UniProt Q9UJQ4, residues 1-1053)
# UniProt Q9UJQ4, sequence (whole entry, looked up): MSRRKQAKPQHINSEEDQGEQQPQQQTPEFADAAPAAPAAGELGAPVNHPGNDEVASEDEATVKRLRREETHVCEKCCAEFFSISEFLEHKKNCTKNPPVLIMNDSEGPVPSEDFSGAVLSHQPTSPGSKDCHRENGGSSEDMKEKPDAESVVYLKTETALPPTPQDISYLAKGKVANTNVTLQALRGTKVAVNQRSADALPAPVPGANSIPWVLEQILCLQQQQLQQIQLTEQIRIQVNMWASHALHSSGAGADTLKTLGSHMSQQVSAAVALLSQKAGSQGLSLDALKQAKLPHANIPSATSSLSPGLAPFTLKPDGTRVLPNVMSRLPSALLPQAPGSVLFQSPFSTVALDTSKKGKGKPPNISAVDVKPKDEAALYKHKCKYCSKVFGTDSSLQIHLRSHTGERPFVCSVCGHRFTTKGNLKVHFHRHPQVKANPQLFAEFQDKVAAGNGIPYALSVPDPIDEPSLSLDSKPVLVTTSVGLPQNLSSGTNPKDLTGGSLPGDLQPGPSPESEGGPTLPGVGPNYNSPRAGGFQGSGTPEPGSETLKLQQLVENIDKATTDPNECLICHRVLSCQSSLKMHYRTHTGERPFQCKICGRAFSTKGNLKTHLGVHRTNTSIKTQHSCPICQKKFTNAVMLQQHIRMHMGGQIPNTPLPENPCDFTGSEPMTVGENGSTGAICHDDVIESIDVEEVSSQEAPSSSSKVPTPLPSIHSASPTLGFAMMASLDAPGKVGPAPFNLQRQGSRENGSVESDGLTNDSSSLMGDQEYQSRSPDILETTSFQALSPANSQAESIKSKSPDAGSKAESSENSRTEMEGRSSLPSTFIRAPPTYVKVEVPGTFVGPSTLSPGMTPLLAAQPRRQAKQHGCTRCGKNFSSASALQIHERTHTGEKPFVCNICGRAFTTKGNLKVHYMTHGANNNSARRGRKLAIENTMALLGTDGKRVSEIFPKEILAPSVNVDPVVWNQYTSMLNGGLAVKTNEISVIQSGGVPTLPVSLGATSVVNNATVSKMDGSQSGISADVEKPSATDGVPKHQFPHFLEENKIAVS
# Method: universal PBM
# Form: double-stranded DNA, one strand shown
# Sample: in vitro
# Concentration: 600 nM
# Notes: 8-mer, flanks averaged, mean of replicates
# Direction: higher = stronger binding
Oligonucleotide,E-score
CTACATCA,0.0537
CATTTGTA,0.293
CACCCCAA,-0.0698
ATCGCGAC,-0.0795
ATTTTTGA,0.313
AGCGAACC,-0.101
AGGCGAAA,0.0168
AACTCCGC,-0.254
GGTGGCGA,-0.174
CTGGTATC,-0.12
AACTTAAT,0.253
ACTGCCAA,-0.0695
GAGACTGC,-0.267
TTGCACAA,0.163
ATTGCTAC,0.172
AAAGGTGT,-0.05
CCCTTGTA,0.0791
GGCCCAAC,-0.239

# Other studies, line by line
Substance,target,test,test system,setting,scale,measurement,result
"PhoQ, residues 284 288 289 292 302 303 TLASMF","PhoP, residues 12 14 15 18 19 VHSCL (Escherichia coli, UniProt P23836)","Sort-seq, refers to: YFP reporter",E. coli,"PhoQ-PhoP variant library, together with: 10 µM Mg2+","reference: high Mg2+ state, higher = stronger signaling",fold induction,1.19

# Repeated from above (study 1):
Oligonucleotide,RBNS enrichment (R)
GUCCAACAUGAGAUUUUAGGAAUAGAAAUUUGCCGGCCAUUUGGAAAGUGAAAUGCCACUUAGUUCUCAAUUGAUGACAGUGUUUGAAUCAUCAUAAAAAAAAUACCUGC,1.1
GCCAAGCAUUUGAACACUUUUUAUAUAAAAUUGUGUGAUGUCUCUUUAUGUCUGCUCUGAGCCUUAAAACACAGGUUGAAGAAGAAAAGAAAGGAAAAAAAAGUGAAAGU,0.718
GUCAAUAUUUUCAAAUUUUUCUAGUUUCCACACACGAGGUCCUGCCUGGGGUUUGAGAAAGCCUGGUGGAGGAGUGUGGUGGUGUGAGUGGAGACUGGCUGGCAUUCCUC,0.792
AAAAGACUUUGUUUAAAGAUUUUAUUUAAACUAUUAAGAAUCAACAUGCAAACAGCCUACUUCUUCAUGAACAAUUCCAUUUUAUUGACUGAACUUUUCUCAUAUUUUCA,1.03
UGCCUGGGGACCUCAGAUGGGAGGAGUGUGUCAGUUGUACCCCGACAGAAAUGUCUCUGGGAUCUGUGGCUGGCUUGCCCCGGGCAUCUCUCCUUUAAGCUCAAGUUUUG,0.434
